Published values from different studies.
A part holds a random share of what one study measured.
UniProt O14730, sequence (whole entry, looked up): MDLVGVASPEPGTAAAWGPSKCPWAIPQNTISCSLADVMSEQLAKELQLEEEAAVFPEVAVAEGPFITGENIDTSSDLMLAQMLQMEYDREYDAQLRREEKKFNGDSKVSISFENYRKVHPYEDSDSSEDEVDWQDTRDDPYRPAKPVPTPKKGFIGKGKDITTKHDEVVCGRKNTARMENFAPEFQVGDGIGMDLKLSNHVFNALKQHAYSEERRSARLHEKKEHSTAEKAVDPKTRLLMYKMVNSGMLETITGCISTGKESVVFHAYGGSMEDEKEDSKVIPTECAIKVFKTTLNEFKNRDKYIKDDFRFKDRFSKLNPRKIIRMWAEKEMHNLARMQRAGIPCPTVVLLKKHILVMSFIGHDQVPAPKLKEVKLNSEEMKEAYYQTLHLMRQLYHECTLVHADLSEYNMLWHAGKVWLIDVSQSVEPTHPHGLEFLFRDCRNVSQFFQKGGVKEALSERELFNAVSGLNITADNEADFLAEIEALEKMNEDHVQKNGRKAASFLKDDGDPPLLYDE
UniProt Q15759, sequence (whole entry, looked up): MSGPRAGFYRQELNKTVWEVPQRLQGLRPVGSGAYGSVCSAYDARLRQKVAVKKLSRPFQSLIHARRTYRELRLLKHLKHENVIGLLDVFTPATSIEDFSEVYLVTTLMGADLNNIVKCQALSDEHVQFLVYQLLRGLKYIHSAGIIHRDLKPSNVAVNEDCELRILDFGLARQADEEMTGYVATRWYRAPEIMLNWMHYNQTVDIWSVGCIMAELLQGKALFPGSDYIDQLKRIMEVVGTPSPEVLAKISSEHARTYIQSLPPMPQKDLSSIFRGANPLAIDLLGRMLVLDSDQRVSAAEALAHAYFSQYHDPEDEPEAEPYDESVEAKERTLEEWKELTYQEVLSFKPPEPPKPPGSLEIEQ
UniProt P29320, sequence (whole entry, looked up): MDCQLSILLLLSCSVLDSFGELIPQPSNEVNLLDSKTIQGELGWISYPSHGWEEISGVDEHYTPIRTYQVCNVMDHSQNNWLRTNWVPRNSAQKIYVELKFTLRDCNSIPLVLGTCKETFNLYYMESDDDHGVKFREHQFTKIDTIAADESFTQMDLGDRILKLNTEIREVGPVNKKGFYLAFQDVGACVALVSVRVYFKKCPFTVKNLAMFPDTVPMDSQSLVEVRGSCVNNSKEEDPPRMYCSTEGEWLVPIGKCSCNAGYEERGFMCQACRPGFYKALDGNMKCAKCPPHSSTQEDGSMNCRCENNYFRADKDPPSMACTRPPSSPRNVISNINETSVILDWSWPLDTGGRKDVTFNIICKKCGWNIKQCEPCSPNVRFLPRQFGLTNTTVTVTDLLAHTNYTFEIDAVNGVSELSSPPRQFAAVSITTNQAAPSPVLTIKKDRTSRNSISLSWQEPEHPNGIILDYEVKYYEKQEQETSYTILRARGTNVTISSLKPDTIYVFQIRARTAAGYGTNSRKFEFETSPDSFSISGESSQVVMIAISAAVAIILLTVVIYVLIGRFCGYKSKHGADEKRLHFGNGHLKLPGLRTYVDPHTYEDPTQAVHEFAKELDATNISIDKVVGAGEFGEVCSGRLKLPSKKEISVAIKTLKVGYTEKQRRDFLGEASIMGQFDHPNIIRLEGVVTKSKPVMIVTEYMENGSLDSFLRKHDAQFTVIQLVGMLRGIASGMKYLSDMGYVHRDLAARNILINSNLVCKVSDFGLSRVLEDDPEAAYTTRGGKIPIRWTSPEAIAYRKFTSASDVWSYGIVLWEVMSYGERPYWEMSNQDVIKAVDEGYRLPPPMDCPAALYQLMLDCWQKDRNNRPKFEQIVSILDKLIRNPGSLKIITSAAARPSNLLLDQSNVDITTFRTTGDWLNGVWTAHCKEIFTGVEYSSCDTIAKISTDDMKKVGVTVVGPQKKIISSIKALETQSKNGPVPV
UniProt Q13705, sequence (whole entry, looked up): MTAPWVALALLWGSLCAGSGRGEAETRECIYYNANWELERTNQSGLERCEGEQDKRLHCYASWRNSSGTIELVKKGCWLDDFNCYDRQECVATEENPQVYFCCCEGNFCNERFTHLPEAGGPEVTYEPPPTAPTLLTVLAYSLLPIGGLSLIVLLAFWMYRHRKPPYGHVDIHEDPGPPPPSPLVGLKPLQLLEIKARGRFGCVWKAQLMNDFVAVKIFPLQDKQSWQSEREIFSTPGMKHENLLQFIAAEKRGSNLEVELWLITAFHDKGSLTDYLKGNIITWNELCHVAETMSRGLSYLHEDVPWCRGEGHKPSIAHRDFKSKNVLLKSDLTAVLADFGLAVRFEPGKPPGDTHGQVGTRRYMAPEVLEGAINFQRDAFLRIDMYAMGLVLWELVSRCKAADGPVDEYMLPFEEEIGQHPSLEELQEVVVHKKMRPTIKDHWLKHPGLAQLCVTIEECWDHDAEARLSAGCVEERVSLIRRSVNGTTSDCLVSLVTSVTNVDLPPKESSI
UniProt Q96SB4, sequence (whole entry, looked up): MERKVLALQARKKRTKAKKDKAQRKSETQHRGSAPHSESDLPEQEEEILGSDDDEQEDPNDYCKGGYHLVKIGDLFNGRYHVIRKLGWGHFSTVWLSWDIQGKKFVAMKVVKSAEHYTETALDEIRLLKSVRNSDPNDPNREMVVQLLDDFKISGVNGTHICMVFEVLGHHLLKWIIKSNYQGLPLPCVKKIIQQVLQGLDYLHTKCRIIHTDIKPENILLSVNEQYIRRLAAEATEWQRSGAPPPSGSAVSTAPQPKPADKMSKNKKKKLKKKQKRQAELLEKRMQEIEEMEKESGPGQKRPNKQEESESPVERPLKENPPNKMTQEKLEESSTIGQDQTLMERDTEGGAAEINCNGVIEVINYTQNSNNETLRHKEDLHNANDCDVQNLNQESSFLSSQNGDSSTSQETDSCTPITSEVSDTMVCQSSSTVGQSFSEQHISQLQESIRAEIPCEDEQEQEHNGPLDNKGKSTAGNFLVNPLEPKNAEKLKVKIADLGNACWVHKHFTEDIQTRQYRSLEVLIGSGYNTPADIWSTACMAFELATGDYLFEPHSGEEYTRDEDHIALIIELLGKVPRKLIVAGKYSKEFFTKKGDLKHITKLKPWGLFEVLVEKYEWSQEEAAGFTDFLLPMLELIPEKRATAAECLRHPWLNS
UniProt Q9Y6M4, sequence (whole entry, looked up): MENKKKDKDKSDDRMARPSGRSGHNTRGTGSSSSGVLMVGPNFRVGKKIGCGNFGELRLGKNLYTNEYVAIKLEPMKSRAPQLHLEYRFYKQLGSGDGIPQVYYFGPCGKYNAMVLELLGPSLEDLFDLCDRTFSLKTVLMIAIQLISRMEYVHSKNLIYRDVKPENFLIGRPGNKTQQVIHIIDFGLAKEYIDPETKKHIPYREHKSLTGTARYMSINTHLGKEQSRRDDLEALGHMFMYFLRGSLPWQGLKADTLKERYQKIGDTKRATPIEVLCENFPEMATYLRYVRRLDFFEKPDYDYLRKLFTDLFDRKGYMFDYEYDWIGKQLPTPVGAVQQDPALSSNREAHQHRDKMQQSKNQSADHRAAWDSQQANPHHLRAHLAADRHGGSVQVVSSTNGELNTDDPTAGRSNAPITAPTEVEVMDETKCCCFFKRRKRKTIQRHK
UniProt P10721, sequence (whole entry, unmodified, looked up): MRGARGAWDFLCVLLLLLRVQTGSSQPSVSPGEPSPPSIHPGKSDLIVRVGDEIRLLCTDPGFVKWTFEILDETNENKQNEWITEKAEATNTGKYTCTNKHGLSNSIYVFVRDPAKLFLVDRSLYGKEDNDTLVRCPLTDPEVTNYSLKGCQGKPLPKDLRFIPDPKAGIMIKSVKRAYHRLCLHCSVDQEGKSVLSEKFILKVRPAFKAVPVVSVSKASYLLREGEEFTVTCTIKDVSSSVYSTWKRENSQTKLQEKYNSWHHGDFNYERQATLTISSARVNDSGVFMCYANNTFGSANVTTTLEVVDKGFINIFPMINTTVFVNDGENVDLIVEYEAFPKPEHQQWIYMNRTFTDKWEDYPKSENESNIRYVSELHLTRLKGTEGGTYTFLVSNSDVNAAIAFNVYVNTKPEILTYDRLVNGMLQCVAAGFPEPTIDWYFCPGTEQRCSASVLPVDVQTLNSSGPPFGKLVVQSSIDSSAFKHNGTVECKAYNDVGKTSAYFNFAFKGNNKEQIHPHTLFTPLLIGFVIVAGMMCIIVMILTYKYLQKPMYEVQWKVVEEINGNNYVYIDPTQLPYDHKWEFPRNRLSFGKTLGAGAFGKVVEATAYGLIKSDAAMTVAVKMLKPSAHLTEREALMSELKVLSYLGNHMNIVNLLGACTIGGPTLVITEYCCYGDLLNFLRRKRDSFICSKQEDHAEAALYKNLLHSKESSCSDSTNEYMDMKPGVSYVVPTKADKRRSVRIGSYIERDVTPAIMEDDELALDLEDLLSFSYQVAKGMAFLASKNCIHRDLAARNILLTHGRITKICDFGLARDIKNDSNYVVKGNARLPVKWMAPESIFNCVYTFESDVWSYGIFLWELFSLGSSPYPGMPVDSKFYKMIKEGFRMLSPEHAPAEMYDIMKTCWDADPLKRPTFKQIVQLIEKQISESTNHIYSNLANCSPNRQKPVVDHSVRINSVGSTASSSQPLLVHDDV
UniProt P06241, sequence (whole entry, looked up): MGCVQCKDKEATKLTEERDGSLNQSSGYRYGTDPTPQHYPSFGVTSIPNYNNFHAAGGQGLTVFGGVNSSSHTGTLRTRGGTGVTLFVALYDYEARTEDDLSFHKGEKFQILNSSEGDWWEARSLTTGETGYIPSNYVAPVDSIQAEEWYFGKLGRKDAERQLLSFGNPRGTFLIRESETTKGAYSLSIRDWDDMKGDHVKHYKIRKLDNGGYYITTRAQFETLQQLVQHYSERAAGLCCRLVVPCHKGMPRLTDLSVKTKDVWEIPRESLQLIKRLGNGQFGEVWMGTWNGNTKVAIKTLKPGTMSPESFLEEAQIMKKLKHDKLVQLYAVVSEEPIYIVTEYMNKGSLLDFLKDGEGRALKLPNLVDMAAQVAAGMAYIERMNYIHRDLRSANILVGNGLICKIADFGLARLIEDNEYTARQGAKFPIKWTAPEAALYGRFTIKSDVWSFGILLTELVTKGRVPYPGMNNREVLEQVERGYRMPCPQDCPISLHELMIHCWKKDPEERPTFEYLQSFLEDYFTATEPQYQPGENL

Study 1
Target: Serine/threonine-protein kinase BRSK1 (BRSK1, Homo sapiens, UniProt Q8TDC3)
Effect on: enzyme activity
Action: inhibitor
Tested at: 0.5 µM
Relative to: control
Construct (Q8TDC3 1-778): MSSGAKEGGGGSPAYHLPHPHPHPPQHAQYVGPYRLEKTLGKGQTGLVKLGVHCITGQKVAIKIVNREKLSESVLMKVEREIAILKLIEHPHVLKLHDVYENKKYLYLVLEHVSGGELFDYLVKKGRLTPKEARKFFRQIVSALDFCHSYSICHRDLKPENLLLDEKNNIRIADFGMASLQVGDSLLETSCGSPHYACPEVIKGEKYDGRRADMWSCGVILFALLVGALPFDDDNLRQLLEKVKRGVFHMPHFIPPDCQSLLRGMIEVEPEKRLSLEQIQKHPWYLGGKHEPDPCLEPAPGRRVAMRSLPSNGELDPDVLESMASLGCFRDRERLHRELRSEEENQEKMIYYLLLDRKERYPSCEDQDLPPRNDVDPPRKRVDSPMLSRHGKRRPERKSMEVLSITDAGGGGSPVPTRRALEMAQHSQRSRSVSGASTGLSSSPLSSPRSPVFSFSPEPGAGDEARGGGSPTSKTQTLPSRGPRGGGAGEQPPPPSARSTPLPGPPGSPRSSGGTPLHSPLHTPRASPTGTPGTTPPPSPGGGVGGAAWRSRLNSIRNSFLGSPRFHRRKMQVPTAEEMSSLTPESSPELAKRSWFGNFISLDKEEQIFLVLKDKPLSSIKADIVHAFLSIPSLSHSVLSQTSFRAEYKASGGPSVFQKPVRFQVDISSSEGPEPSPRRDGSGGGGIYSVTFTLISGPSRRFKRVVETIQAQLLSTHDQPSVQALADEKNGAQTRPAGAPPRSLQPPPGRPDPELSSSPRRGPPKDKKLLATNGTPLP
| Compound | remaining activity |
| --- | --- |
| O=Nc1c(-c2c(O)[nH]c3cc(Br)ccc23)[nH]c2ccccc12 | 14.6% |
| c1cc(-c2cnn3cc(-c4ccc(OCCN5CCCCC5)cc4)cnc23)ccn1 | 74.5% |
| CNc1cc2c(Nc3cccc(Br)c3)ncnc2cn1 | 91.2% |
| CC(C)N(CCC(=O)c1ccc2ccccc2c1)Cc1ccccc1 | 98% |
| CCCCc1c(-c2ccc(OC)cc2)[nH]c2nccnc12 | 89.1% |
| N#CC(c1ccnc(NCCc2cccnc2)n1)c1nc2ccccc2s1 (centres unmarked) | 92.7% |
| CC(C)(C)c1nc2c3cc[nH]c(=O)c3c3cc(F)ccc3c2[nH]1 | 15.4% |
| O=C1NC(=O)/C(=C/c2ccc3c(c2)OC(F)(F)O3)S1 | 88% |
| Cc1cc(Nc2cc(N3CCN(C)CC3)nc(Sc3ccc(NC(=O)C4CC4)cc3)n2)[nH]n1 | 112% |
| CC(C)n1cnc2c(Nc3cccc(Cl)c3)nc(NCCO)nc21 | 93.1% |
| O=C(c1ccccc1)c1ccc(N2CCOCC2)cc1O | 103% |
| COc1cccc(-c2cc(=O)c3ccccc3o2)c1N | 84.9% |
| CN(C)S(=O)(=O)c1ccc2c(c1)/C(=C/c1cc3c([nH]1)CCCC3)C(=O)N2 | 32.4% |
| O=C1NC(=O)c2c1c1c3ccccc3[nH]c1n1cncc21 | 22.5% |
| Oc1cccc(-c2nc(N3CCOCC3)c3oc4ncccc4c3n2)c1 | 91.1% |
| NC(=O)c1cccc(-c2cc(Nc3ccc(OC(F)(F)F)cc3)ncn2)c1 | 98.4% |
| O=C(O)/C=C/c1cc(Br)c(Br)c(Br)c1Br | 80.5% |
| N#Cc1cnc2cnc(NCc3cccnc3)cc2c1Nc1ccc(F)c(Cl)c1 | 94.5% |
| CN1CCN(c2ccc3nc(-c4c(N)c5c(F)cccc5[nH]c4=O)[nH]c3c2)CC1 | 59.8% |

Study 2
Compound: CS(=O)(=O)N1CCCC(NC(=O)[C@H](CCC2CCCCC2)NC(=O)c2ccc(CNc3ncnc4c3nnn4-c3ccccc3)cc2)C1 (some centres unmarked)
Technique: competition with immobilised ligand
Tested at: 0.1 µM
| target | test | remaining binding |
| --- | --- | --- |
| Serine/threonine-protein kinase RIO3 (RIOK3, Homo sapiens, UniProt O14730) | cell-free assay | 88% |
| Serine/threonine-protein kinase tousled-like 2 (TLK2, Homo sapiens, UniProt Q86UE8) | cell-free assay | 82% |
| Receptor-type tyrosine-protein kinase FLT3 (FLT3, Homo sapiens, UniProt P36888, D835V/ITD) | cell-free assay | 100% |
| Mitogen-activated protein kinase 11 (MAPK11, Homo sapiens, UniProt Q15759) | cell-free assay | 100% |
| Activin receptor type-2B (ACVR2B, Homo sapiens, UniProt Q13705) | binding | 83% |
| Ribosomal protein S6 kinase alpha-3, C-terminal kinase domain (RPS6KA3, Homo sapiens, UniProt P51812) | cell-free assay | 100% |
| Mast/stem cell growth factor receptor Kit (KIT, Homo sapiens, UniProt P10721, A829P) | cell-free assay | 100% |
| Fibroblast growth factor receptor 1 (FGFR1, Homo sapiens, UniProt P11362) | cell-free assay | 91% |
| Cyclin-dependent kinase 4, with cyclin D3 (CDK4, Homo sapiens, UniProt P11802) | cell-free assay | 100% |
| Hepatocyte growth factor receptor (MET, Homo sapiens, UniProt P08581, M1250T) | cell-free assay | 87% |
| Serine/threonine-protein kinase TBK1 (TBK1, Homo sapiens, UniProt Q9UHD2) | cell-free assay | 88% |
| Epidermal growth factor receptor (EGFR, Homo sapiens, UniProt P00533, L861Q) | cell-free assay | 100% |
| Tyrosine-protein kinase ABL1, phosphorylated (ABL1, Homo sapiens, UniProt P00519) | cell-free assay | 82% |

Study 3
Technique: PRP chromatography
Setting: linear fit, 1 mL
| Compound | logD 1,9-decadiene/water [log units] |
| --- | --- |
| CC(C)C[C@@H]1NC(=O)[C@H](CC(C)C)NC(=O)[C@@H](CC(C)C)NC(=O)[C@H](C(C)C)NC(=O)[C@H](C)NC(=O)[C@@H](CC(C)C)NC(=O)[C@H](C)NC1=O | -0.77 |
| CC(C)C[C@@H]1NC(=O)[C@H](CC(C)C)NC(=O)[C@@H](CC(C)C)NC(=O)[C@H](CC(C)C)NC(=O)[C@@H](Cc2cscn2)NC(=O)[C@@H](CC(C)C)NC(=O)[C@H](C)NC1=O | 0.196 |
| CC(C)C[C@@H]1NC(=O)[C@H](C)NC(=O)[C@H](CC(C)C)NC(=O)[C@@H](CC(C)C)NC(=O)[C@H](CC(C)C)NC(=O)[C@H](C)NC(=O)[C@@H](CC(C)C)NC1=O | -0.346 |
| CC(C)C[C@@H]1NC(=O)[C@H](C(C)C)NC(=O)[C@H](CCC(=O)N2CCCC2)NC(=O)[C@H](CCC(=O)N2CCCC2)NC(=O)[C@@H](Cc2cscn2)NC(=O)[C@H](CC(C)C)NC(=O)[C@@H](CC(C)C)NC1=O | -4.39 |
| CC(C)C[C@@H]1NC(=O)[C@H](Cc2cscn2)NC(=O)[C@H](Cc2cscn2)NC(=O)[C@@H](CC(C)C)NC(=O)[C@@H](CCC(=O)N2CCCC2)NC(=O)[C@H](CC(C)C)NC(=O)[C@@H](CC(C)C)NC1=O | -0.682 |
| CC(C)C[C@@H]1NC(=O)[C@H](Cc2cscn2)NC(=O)[C@H](Cc2cscn2)NC(=O)[C@H](C)NC(=O)[C@@H](CCC(=O)N2CCCC2)NC(=O)[C@H](CC(C)C)NC(=O)[C@@H](CC(C)C)NC1=O | -2.14 |
| CC(C)C[C@@H]1NC(=O)[C@H](Cc2cscn2)NC(=O)[C@@H](CC(C)C)NC(=O)[C@@H](CCC(=O)N2CCCC2)NC(=O)[C@H](CC(C)C)NC(=O)[C@@H](CC(C)C)NC(=O)[C@H](CC(C)C)NC1=O | 0.345 |
| CC(C)C[C@@H]1NC(=O)[C@@H](C)NC(=O)[C@H](Cc2cscn2)NC(=O)[C@@H](C(C)C)NC(=O)[C@H](C(C)C)NC(=O)[C@H](CC(C)C)NC(=O)[C@@H](CC(C)C)NC1=O | 0.187 |
| CC(C)C[C@@H]1NC(=O)[C@H](CC(C)C)NC(=O)[C@@H](CC(C)C)NC(=O)[C@@H](C(C)C)NC(=O)[C@H](C)NC(=O)[C@H](CC(C)C)NC(=O)[C@@H](CC(C)C)NC1=O | 1.36 |
| CC(C)C[C@@H]1NC(=O)[C@H](CCC(=O)N2CCCC2)NC(=O)[C@@H](C(C)C)NC(=O)[C@H](C)NC(=O)[C@H](CC(C)C)NC(=O)[C@@H](CC(C)C)NC(=O)[C@H](CC(C)C)NC1=O | -0.687 |

Study 4
SMILES: CC(C)S(=O)(=O)c1ccc2nccc(Nc3ccc4sc(C5CCCC5)nc4c3)c2c1
Effect on: enzyme activity
Action: inhibitor
Tested at: 1 µM
| target | activity vs control [%] |
| --- | --- |
| Serine/threonine-protein kinase B-raf (BRAF, Homo sapiens, UniProt P15056) | 94 |
| Tyrosine-protein kinase Fyn (FYN, Homo sapiens, UniProt P06241) | 94 |
| Ephrin type-A receptor 3 (EPHA3, Homo sapiens, UniProt P29320) | 130 |
| Casein kinase I isoform gamma-3 (CSNK1G3, Homo sapiens, UniProt Q9Y6M4) | 127 |
| SRSF protein kinase 1 (SRPK1, Homo sapiens, UniProt Q96SB4) | 95 |

Some of these lines once more (study 3):
| Compound | logD 1,9-decadiene/water [log units] |
| --- | --- |
| CC(C)C[C@@H]1NC(=O)[C@H](Cc2cscn2)NC(=O)[C@@H](CC(C)C)NC(=O)[C@@H](CCC(=O)N2CCCC2)NC(=O)[C@H](CC(C)C)NC(=O)[C@@H](CC(C)C)NC(=O)[C@H](CC(C)C)NC1=O | 0.345 |
| CC(C)C[C@@H]1NC(=O)[C@H](CC(C)C)NC(=O)[C@@H](CC(C)C)NC(=O)[C@H](CC(C)C)NC(=O)[C@@H](Cc2cscn2)NC(=O)[C@@H](CC(C)C)NC(=O)[C@H](C)NC1=O | 0.196 |
| CC(C)C[C@@H]1NC(=O)[C@H](Cc2cscn2)NC(=O)[C@H](Cc2cscn2)NC(=O)[C@@H](CC(C)C)NC(=O)[C@@H](CCC(=O)N2CCCC2)NC(=O)[C@H](CC(C)C)NC(=O)[C@@H](CC(C)C)NC1=O | -0.682 |
| CC(C)C[C@@H]1NC(=O)[C@H](C)NC(=O)[C@H](CC(C)C)NC(=O)[C@@H](CC(C)C)NC(=O)[C@H](CC(C)C)NC(=O)[C@H](C)NC(=O)[C@@H](CC(C)C)NC1=O | -0.346 |
| CC(C)C[C@@H]1NC(=O)[C@H](CCC(=O)N2CCCC2)NC(=O)[C@@H](C(C)C)NC(=O)[C@H](C)NC(=O)[C@H](CC(C)C)NC(=O)[C@@H](CC(C)C)NC(=O)[C@H](CC(C)C)NC1=O | -0.687 |
| CC(C)C[C@@H]1NC(=O)[C@H](CC(C)C)NC(=O)[C@@H](CC(C)C)NC(=O)[C@H](C(C)C)NC(=O)[C@H](C)NC(=O)[C@@H](CC(C)C)NC(=O)[C@H](C)NC1=O | -0.77 |
| CC(C)C[C@@H]1NC(=O)[C@@H](C)NC(=O)[C@H](Cc2cscn2)NC(=O)[C@@H](C(C)C)NC(=O)[C@H](C(C)C)NC(=O)[C@H](CC(C)C)NC(=O)[C@@H](CC(C)C)NC1=O | 0.187 |
